Published values pooled from the literature.
Every numbered part comes from another study and shows a few of its results, in no order. Substitutions count along the parent as printed.

Set 1
Target: RNA binding protein fox-1 homolog 2, RRM domain, GST-SBP tag (RBFOX2, Homo sapiens, UniProt O43251-10, residues 100-194)
Technique: RNA Bind-n-Seq
Form: RNA
Matrix: in vitro
Concentration: 365 nM
Setting: natural RNA segment, single round, ends assumed
Baseline: no-protein control
Reading: higher = stronger binding
Shared flanks, not repeated: GGGAGUUCUACAGUCCGACGAUC … UGGAAUUCUCGGGUGCCAA
Target sequence (chain): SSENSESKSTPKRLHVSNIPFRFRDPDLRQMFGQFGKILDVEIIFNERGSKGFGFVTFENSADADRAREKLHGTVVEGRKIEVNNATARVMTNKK
| Strand | RBNS enrichment (R) |
| --- | --- |
| AUUUCUAUGGUUGAAAUUCAUAGCCUUUCACUAUAGGAAAUGUUAAGAAAAAUUUAAACAGUUUAAGAUUAUAUAAUUUUUUUUUCUUUUCUAUAUUGAGGUGGCCACCA | 0.78 |
| CAGCGGAUUGCUGUGGGCUGGUUCAUAAAGUGAAACUAAUGAAUCUAUCUCUUUGUCACUUGCUGGUACAGCUAGUUUGUUUCACUUGCACAUUUGUACAUAUAUCUAAU | 0.479 |
| GAGCAGCUCACACUCCCUCCGCUGGGAACGAUGGCUUCUGCCUAGUACCUAUCCUUGUGUUUCUGAUGCAGUGGUAGCAUUGGUUCAAGUUCUCUCCUGCUGUGGUCAGA | 0.318 |
| UUUUCCAGUGAGGUUGUAGACCCUGCAAACCUAACUGUAACAUAGCCUUCACAAGCAUGAUAAACCCUCCCUGUUGUGUAUAGUAACGGUCUCAUUUUAUAGUCCACCUU | 1.13 |
| AACUGGAAAGGCUGUCUGGGGUCUUCUGACUGCAGGGGAAGGAUGUACUUUCCAAACAAAUGAUACAACCCUGACCAAGCUAAAAGACGCUUGUUAAAGGCUAUUUUCUA | 0.542 |
| CAACACCUAAGGUGUUGUGACUGUUCCCCCACCCAGUGCAUGUUCUUUCCCUCCAUUUCUGUGGCUUCCACGUCUGCAGUGGCCACUGAUACUCACUUGAGUCAGGCUCC | 19.2 |
| CCCUUCCUCAGGCUCCCCCGGCCCACCCUGCUCAGUGACCCCACAGGAAGCUUACACAUUUUCUCAGAGGCCUUUGUGCUCCCACCUCUUCUACCCUCCCCCUCUUCUUU | 0.894 |
| GCCUUCCUAGGGUUUAAAGAACAGCAUUCAAAAUUCCCCGUCCUGUCAGUGUUUGCCUUCGCACCUCCUCCCCUAAAGCAGCGCGGGGGGCAAAUAAGACCCCACCCCUC | 1.81 |
| CAAAGCCUUUCGAGGUAGGAGAGACCAAGACCAGUGCACAGCUUUUUAACUCUUGUCUUCUGUGAGUUUUCCGUCCUCUGUAGUCACGUGCCUGCACACCGUUCUCUCCA | 0.449 |
| UCCACCAAAAGGGCUCCCUGAGGGUCUGGGCAAGGGACCUGCUUCUAUUAGCCCUUCUCCAUGGCCCUGCCAUGCUCUCCAAACCACUUUUUGCAGCUUUCUCUAGUUCA | 1.17 |
| UGUGCACCAAGCAGGAAAUGAAAAUGUCUUGUGUUACCUGAAAACACUGUGCACAUCUGUGUCUUGUUUGGAAUAUUGUCCAUUGUCCAAUCCUAUGUUUUUGUUCAAAG | 0.542 |
| AGCAAGCGAACUUAGUGCCACAGGUGUUCAUUUACUCGGGAAAUGGUUUUGCUUUUUGUAUUGUCUAAUCUCUUUAAUGACUUCAUACUGUGUAAGGAAAAUUACUUUUG | 0.361 |

Set 2
Target: Histone acetyltransferase KAT6A, winged helix 1, GST fusion (KAT6A, Homo sapiens, UniProt Q92794, residues 1-85)
Technique: protein binding microarray
Form: double-stranded DNA, one strand shown
Matrix: in vitro
Concentration: not given
Setting: 8-mer, flanks averaged, mean of 2 arrays, mostly near background
Baseline: not given
Reading: higher = stronger binding
Construct (chain): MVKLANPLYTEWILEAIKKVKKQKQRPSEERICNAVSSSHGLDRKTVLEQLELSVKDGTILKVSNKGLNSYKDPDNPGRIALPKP
| Strand | E-score |
| --- | --- |
| GCACAGCA | -0.0282 |
| CAAGGCCC | 0.00194 |
| GCCCAATA | -0.0791 |
| AACCCAGG | -0.159 |
| TACGAATA | -0.308 |
| TTCAGCAA | -0.246 |
| CACGCTCA | -0.0533 |
| TATATAAA | -0.076 |
| CCATTTAA | -0.248 |
| ACACGGGC | 0.232 |
| GAGTAGCC | -0.0573 |
| CCGTAAGA | 0.241 |
| ATTGATAC | 0.0975 |
| GTTTCCAA | -0.303 |
| GCAGGCCA | -0.0214 |
| ACGTTGAC | -0.14 |
| CCGTTTTC | 0.114 |
| AATTGCAG | -0.107 |
| CAGGTGGC | -0.219 |
| ATCCGGGA | -0.13 |
| ACAGCGTC | 0.0496 |
| TATATTAA | 0.0237 |
| AGTTAGAC | 0.0094 |
| GCTTCGCA | 0.126 |
| ATAAGTTA | -0.224 |

Set 3
Target: ABI1, truncated, D143A, DHFR fusion (Arabidopsis thaliana)
Technique: DHFR PCA, deep sequencing
Matrix: yeast
Setting: methotrexate growth selection, single substitutions
Added: (+)-ABA 710 µM
Baseline: wild-type fitted maximum
Reading: higher = stronger binding
Starting sequence: PYL1, truncated, DHFR fusion (Arabidopsis thaliana); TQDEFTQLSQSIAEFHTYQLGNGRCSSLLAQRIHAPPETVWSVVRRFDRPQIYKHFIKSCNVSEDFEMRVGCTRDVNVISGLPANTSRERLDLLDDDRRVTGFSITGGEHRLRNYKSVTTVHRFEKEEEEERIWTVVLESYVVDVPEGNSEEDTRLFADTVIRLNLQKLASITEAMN
| Change | relative binding score [%] |
| --- | --- |
| G102V | 62.4 |
| R132P | 112 |
| L94Q | 77.1 |
| F47A | 19.6 |
| E4Q | 95.9 |
| V145Y | 59.5 |
| V76L | 98.8 |
| E174P | 81.8 |
| S11C | 106 |
| F66V | 99.3 |
| T39I | 98.6 |
| D92F | 75.8 |
| L138W | 42.6 |
| E38G | 97.6 |
| R123F | 94.3 |
| H110N | 97.8 |
| C25L | 92.1 |
| M68H | 100 |
| K126F | 105 |
| R98D | 96.4 |
| R45F | 0.722 |
| K126L | 107 |
| N177I | 97.6 |
| T154F | 18.2 |
| F47H | -21 |

Set 4
Target: PABPC1L2, full length, GST fusion (mouse, UniProt A0ABA7IW68)
Technique: RNAcompete
Form: RNA
Matrix: in vitro
Concentration: 20 nM
Setting: 7-mer, probes averaged, single round
Baseline: mean of 7-mers
Reading: higher = stronger binding
Target sequence (chain): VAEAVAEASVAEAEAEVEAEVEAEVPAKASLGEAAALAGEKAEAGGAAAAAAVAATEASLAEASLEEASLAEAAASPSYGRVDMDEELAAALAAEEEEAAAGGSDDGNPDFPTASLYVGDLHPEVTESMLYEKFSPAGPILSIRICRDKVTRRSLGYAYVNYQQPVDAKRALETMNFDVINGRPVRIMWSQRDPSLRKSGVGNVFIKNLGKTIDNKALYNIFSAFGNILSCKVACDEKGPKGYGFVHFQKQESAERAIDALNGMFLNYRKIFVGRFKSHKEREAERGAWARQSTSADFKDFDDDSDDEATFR
| Strand | 7-mer Z-score |
| --- | --- |
| GCCUCGC | -0.394 |
| ACCUGUA | -0.269 |
| UUCUAUG | -0.38 |
| UAUGAGG | 0.0189 |
| GCACUCG | -0.175 |
| UUUACAU | -0.079 |
| CCUAAUG | -0.289 |
| AAGGCGC | 0.144 |
| AGGCUGU | -0.0718 |
| AUUGUGU | -0.354 |
| CGGUCCC | -0.318 |
| UGGUACU | 0.000733 |
| CGGUGGC | -0.13 |
| ACCCCUC | -0.311 |
| UAAAAUA | 3.11 |
| CUCCUAC | -0.325 |
| CAACGCG | -0.0047 |
| CCAAUGG | -0.199 |
| CAGGUCC | -0.262 |
| UGGCAUU | -0.104 |
| AGAUAUU | -0.344 |
| UUGCUCG | -0.333 |
| GCAUGCC | -0.0156 |
| GCUAAUA | -0.0772 |
| GGGCUUU | 0.0932 |

Set 5
Target: Interferon regulatory factor 5, full length, phosphomimetic (IRF5, Homo sapiens, UniProt Q13568-2, residues 1-514, S451D/S453D/S456D/S462D)
Technique: protein-binding microarray
Form: double-stranded DNA, one strand shown
Matrix: in vitro
Concentration: 940 nM top
Setting: 60-bp whole probe
Added: salmon DNA 0.4 mg/ml
Baseline: random background probes
Reading: higher = stronger binding
Shared flanks, not repeated: GCCTAGCAC … GTCTTGATTCGCTTGACGCTGCTG
| Strand | fitted relative affinity [z-score] |
| --- | --- |
| TCGAGTCTGCAACATGGGACTGTGCTA | -0.152 |
| TCATGTTTCCATTTTCTACTGTGCTAG | 1.26 |
| TTCTTTACCACATTCTCTGCGTGCTAG | 1.6 |
| TTAGGTATCGGACCGGGTTAGTGCTAG | 3.4 |
| TTAGATCTCAGTACCGATTAGTGCTAG | 0.451 |
| GACGATATCGGGTATCGAGTCGTGCTA | 1.27 |
| TTAGATTTCAGACTGGAATAGTGCTAG | -0.143 |
| GACGGTTTCCTTCTCCTGATGTGCTAG | 1.58 |
| GAAGGTTTCCTTCTCCTGACGTGCTAG | 1.28 |
| TCACATCGTAAGCAAAAACTGTGCTAG | -0.0786 |
| GACGGACTGCTTCTCCTGGCGTGCTAG | -0.0638 |
| ATAGATCTCAGTTTCGATTAGTGCTAG | 7.9 |
| TTTCTTTTGCTTGTTCTTAGCGTGCTA | 2.72 |
| TTGGGACTGGACTTTCGGTTAGTGCTA | 2.61 |
| TGCTTTGGACCCAGGGCTAAGTGCTAG | -0.685 |
| TCAGATTTCCACTTTCTACTGTGCTAG | 1.3 |
